Measured values from different studies.
Each line is one published result; not all experiments were run side by side. ± marks the error that the study gave.
Target: Delta-type opioid receptor (Oprd1, Rattus norvegicus, UniProt P33533)
Sequence of UniProt P33533 (whole entry, looked up): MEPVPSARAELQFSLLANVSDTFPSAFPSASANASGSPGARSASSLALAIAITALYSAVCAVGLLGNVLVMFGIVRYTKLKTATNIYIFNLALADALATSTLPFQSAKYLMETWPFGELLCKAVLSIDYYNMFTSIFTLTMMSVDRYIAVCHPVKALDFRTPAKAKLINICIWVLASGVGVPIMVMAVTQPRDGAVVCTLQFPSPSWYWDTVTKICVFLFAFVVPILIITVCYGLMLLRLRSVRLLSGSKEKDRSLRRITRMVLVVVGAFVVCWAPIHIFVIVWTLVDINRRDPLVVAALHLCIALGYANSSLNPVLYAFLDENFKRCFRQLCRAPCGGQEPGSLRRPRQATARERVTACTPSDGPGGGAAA

SMILES	assay	system	setting	how to read	quantity	value
Cc1cc(O)cc(C)c1CC(N)C(=O)NC1CCNc2c1cc(Cc1ccccc1)cc2C(C)(C)C (stereo not shown)	GTPγS binding, agonist	C6 cells expressing DOR	–	reference: DPDPE at 10 µM	maximal stimulation	42%
CC(C)C[C@H](NC(=O)[C@H](Cc1ccc2ccccc2c1)NC(=O)CNC(=O)[C@H](NC(=O)[C@@H](N)Cc1ccc(O)cc1)[C@H](C)O)C(=O)N[C@@H](CO)C(N)=O	GTPγS binding, agonist, radiometric	–	cell membranes	–	Emax	196%
N[C@@H](Cc1ccc(C(=O)NCCc2ccc3ccccc3c2)cc1)C(=O)N1Cc2ccccc2C[C@H]1C(=O)N[C@@H](Cc1ccccc1)C(=O)N[C@@H](Cc1ccccc1)C(=O)O	binding, [3H]DSLET displacement	rat brain membranes	–	reference: DPDPE	relative affinity	5 to 8 fold
CC(C)C[C@H](NC(=O)[C@H](Cc1ccc2ccccc2c1)NC(=O)CNC(=O)[C@H](NC(=O)[C@@H](N)Cc1ccc(O)cc1)[C@H](C)O)C(=O)N[C@@H](CO[C@@H]1O[C@H](CO)[C@@H](O)[C@H](O)[C@H]1O)C(N)=O	GTPγS binding, agonist, radiometric	–	cell membranes	–	Emax	144%
Cc1cc(O)cc(C)c1CC(N)C(=O)NC1CCNc2c(CN3CCOCC3)cc(Cc3ccccc3)cc21 (stereo not shown)	GTPγS binding, agonist	C6 cells expressing DOR	–	reference: DPDPE at 10 µM	maximal stimulation	29%
Cc1cc(O)cc(C)c1C[C@H](N)C(=O)N1Cc2ccccc2C[C@H]1C(=O)NCC(=O)NCc1ccccc1	forskolin-stimulated cAMP, agonist	C6-DOR	concentration not given	–	inhibition	28 ± 2%
N[C@@H](Cc1ccc(C(=O)NCCc2cccc3ccccc23)cc1)C(=O)N1Cc2ccccc2C[C@H]1C(=O)N[C@@H](Cc1ccccc1)C(=O)N[C@@H](Cc1ccccc1)C(=O)O	binding, [3H]DSLET displacement	rat brain membranes	–	reference: Ki mu over Ki delta	selectivity ratio	250 to 520
Cc1cc(O)cc(C)c1C[C@H](N)C(=O)N[C@@H]1CCNc2ccc(Cc3ccccc3)cc21	GTPγS binding, agonist	C6 cells expressing DOR	–	reference: DPDPE at 10 µM	maximal stimulation	16%
Cc1cc(O)cc(C)c1C[C@H](N)C(=O)N[C@@H]1CSCCSC(C)(C)[C@H](C(=O)O)NC(=O)C2(Cc3ccccc3C2)NC1=O	forskolin-stimulated cAMP	C6-DOR	10 µM	reference: forskolin alone	cAMP level	91 ± 6%
CC(=O)N1CCC(NC(=O)C(N)Cc2c(C)cc(O)cc2C)c2cc(CN3CCc4ccccc4C3)ccc21 (stereo not shown)	antagonist	–	30 nM, together with: DPDPE	–	Ke	4.6 nM

For quick reference, copied from above:
SMILES	assay	system	setting	how to read	quantity	value
Cc1cc(O)cc(C)c1C[C@H](N)C(=O)N[C@@H]1CCNc2ccc(Cc3ccccc3)cc21	GTPγS binding, agonist	C6 cells expressing DOR	–	reference: DPDPE at 10 µM	maximal stimulation	16%
